Results pooled from the literature.
A part holds a random share of what one study measured.
Chain of UniProt O75116 (whole entry, looked up): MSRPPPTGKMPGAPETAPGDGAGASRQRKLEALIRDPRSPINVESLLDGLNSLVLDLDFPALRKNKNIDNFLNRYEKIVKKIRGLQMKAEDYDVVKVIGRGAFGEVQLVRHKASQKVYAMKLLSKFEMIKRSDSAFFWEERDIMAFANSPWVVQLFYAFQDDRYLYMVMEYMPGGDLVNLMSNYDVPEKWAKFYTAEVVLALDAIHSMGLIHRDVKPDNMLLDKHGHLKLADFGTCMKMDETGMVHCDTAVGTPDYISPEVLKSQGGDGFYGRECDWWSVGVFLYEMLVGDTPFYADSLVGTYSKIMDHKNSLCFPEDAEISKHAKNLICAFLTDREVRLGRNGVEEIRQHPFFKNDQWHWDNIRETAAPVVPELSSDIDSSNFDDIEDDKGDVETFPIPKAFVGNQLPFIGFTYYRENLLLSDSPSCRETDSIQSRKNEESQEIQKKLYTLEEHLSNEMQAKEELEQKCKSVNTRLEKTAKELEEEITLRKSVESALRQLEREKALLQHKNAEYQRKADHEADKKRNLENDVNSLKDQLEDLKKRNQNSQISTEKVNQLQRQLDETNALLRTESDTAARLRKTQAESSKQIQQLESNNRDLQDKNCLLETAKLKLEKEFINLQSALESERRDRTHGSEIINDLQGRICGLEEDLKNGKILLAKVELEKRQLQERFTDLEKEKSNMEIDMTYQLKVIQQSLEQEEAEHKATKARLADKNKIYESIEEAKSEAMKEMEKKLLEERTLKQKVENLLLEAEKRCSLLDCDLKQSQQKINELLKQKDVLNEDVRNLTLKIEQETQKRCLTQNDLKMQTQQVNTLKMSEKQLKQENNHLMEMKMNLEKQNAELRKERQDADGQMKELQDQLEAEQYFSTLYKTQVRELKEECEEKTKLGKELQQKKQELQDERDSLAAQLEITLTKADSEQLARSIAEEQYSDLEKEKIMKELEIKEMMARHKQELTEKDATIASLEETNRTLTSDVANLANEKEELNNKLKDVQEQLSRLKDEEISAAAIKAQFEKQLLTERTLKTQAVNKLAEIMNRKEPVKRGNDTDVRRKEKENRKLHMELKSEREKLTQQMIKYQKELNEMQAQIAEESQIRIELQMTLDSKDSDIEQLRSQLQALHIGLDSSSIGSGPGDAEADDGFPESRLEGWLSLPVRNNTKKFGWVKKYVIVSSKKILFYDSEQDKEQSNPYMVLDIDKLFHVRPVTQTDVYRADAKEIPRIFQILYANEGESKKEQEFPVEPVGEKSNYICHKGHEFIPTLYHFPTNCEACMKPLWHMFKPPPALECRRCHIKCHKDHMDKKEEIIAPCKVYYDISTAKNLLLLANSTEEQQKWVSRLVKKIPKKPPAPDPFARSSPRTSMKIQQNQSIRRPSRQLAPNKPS
Chain of UniProt P78356 (whole entry, looked up): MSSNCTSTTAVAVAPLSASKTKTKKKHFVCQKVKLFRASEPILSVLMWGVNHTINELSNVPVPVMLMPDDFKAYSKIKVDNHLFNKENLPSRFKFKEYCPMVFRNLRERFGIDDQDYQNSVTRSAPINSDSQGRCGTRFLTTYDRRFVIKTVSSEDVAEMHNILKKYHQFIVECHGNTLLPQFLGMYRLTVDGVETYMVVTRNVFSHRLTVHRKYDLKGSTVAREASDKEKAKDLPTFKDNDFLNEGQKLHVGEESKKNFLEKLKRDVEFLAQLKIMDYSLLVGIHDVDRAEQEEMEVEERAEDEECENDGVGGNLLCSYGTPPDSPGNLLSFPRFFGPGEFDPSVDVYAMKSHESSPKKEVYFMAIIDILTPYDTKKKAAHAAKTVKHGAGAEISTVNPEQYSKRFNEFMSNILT
Chain of UniProt Q13557 (whole entry, looked up): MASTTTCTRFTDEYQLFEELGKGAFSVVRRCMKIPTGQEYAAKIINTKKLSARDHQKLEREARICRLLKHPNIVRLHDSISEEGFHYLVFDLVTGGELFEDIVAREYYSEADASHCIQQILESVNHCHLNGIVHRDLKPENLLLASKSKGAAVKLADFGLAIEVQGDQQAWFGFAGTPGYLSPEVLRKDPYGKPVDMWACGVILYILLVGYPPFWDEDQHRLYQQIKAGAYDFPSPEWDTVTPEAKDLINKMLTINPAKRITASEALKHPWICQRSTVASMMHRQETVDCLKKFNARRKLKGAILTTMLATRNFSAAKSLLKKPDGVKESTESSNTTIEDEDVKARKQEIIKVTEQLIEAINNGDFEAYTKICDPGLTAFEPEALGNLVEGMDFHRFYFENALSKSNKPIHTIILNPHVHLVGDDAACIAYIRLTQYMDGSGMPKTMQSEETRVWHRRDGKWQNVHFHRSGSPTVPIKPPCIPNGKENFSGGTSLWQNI
Chain of UniProt Q6XUX3 (whole entry, looked up): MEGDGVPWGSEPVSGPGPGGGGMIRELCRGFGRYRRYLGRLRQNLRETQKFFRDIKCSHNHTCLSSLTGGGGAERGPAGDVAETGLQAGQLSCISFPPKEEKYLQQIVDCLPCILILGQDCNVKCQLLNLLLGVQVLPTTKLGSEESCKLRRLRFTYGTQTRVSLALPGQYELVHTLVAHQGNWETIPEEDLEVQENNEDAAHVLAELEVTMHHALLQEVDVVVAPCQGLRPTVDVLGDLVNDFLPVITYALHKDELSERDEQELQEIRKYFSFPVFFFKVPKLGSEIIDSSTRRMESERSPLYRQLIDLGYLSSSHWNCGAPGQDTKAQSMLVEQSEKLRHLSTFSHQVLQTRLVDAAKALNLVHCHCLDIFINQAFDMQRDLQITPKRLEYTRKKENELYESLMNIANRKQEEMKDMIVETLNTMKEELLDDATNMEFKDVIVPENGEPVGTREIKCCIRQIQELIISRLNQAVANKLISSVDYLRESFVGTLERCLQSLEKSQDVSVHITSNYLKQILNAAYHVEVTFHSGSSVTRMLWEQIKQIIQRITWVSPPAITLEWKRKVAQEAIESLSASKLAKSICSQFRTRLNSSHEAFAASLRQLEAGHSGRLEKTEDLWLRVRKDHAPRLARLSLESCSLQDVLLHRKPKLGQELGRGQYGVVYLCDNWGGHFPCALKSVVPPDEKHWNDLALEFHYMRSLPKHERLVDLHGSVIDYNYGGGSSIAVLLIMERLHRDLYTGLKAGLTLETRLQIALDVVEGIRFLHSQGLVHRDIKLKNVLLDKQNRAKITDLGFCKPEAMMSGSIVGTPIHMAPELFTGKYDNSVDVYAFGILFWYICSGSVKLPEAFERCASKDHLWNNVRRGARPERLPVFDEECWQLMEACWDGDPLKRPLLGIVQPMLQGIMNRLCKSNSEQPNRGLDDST
Chain of UniProt P29376 (whole entry, looked up): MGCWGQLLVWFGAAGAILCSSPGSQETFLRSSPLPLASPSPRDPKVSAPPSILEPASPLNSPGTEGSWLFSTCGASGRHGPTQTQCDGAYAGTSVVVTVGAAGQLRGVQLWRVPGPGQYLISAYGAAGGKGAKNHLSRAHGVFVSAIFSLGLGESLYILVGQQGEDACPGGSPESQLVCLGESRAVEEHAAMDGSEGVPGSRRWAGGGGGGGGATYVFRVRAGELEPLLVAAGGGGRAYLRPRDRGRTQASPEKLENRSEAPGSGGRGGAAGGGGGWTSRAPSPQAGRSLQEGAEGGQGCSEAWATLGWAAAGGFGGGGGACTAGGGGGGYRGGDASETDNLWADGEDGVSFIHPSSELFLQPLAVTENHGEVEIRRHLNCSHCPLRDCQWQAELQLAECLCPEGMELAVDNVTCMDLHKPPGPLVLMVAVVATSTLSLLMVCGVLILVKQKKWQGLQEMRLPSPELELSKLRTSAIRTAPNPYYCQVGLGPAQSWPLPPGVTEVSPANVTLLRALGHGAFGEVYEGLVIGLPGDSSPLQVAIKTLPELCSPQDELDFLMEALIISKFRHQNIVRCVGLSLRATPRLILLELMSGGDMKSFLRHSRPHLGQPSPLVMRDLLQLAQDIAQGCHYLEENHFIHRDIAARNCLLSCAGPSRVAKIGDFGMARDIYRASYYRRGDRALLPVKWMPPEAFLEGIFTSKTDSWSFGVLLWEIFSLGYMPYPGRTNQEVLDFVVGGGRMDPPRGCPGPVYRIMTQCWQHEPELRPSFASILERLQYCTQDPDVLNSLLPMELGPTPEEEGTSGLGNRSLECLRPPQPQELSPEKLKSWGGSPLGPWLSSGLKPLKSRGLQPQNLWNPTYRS

Study 1
Target: Calcium/calmodulin-dependent protein kinase type II subunit alpha (CAMK2A, Homo sapiens, UniProt Q9UQM7)
Chain of UniProt Q9UQM7 (whole entry, looked up): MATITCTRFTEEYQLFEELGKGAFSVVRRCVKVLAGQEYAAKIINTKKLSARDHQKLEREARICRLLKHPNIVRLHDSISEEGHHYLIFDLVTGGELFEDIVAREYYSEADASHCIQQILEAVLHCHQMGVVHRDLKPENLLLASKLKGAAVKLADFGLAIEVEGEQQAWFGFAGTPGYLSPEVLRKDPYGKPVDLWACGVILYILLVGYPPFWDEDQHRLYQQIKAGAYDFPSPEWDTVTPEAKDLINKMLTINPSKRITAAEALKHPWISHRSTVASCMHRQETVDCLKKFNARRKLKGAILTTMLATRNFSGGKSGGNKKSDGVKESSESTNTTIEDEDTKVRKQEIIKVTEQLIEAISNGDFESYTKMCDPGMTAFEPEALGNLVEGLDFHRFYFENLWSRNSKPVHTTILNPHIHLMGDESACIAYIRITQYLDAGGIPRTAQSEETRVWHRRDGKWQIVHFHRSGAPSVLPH
Effect on: enzyme activity
Mode: inhibitor
Concentration: 10 µM
| SMILES | inhibition [%] |
| --- | --- |
| CO[C@H]1C[C@@H]2CC[C@@H](C)[C@@](O)(O2)C(=O)C(=O)N2CCCC[C@H]2C(=O)O[C@H]([C@H](C)C[C@@H]2CC[C@@H](OC(=O)C(C)(CO)CO)[C@H](OC)C2)CC(=O)[C@H](C)/C=C(\C)[C@@H](O)[C@@H](OC)C(=O)[C@H](C)C[C@H](C)/C=C/C=C/C=C/1C | -8 |
| CCOc1ccc(/C=C2\NCCc3cc(OCC)c(OCC)cc32)cc1OCC | -10 |
| O=C(CO)[C@@H](O[C@H]1O[C@H](CO)[C@@H](O)[C@H](O)[C@H]1O)[C@H](O)[C@H](O)CO | 6 |
| O=C(O)c1cc(=O)c2ccccc2[nH]1 | 38 |
| COc1ccc(C(=O)c2ccccc2)c(O)c1 | 4 |
| C=C1C[C@@]2(O)O[C@@]3(C[C@H]2C(C)C)[C@@H](C)CC[C@@H]13 | -8 |
| O=C(O)[C@H]1O[C@@H](Oc2cc3oc(-c4ccccc4)cc(=O)c3c(O)c2O)[C@H](O)[C@@H](O)[C@@H]1O | -15 |
| CC(C)=CCc1c(-c2ccc(O)c3c2OC(C)(C)C=C3)oc2cc(O)cc(O)c2c1=O | 0 |
| C[C@@H]1CC[C@@]2(OC1)O[C@H]1C[C@H]3[C@@H]4CC=C5C[C@@H](O[C@@H]6O[C@H](CO)[C@@H](O[C@@H]7O[C@@H](CO)[C@H](O)[C@H]7O)[C@H](O)[C@H]6O[C@@H]6O[C@@H](C)[C@H](O)[C@@H](O)[C@H]6O)CC[C@]5(C)[C@H]4CC[C@]3(C)[C@H]1[C@@H]2C | -8 |

Study 2
Target: Bromodomain-containing protein 4, BD1 (BRD4, Homo sapiens, UniProt O60885)
Effect on: acetyl-histone H4 peptide binding
Method: AlphaScreen displacement
Concentration: 50 µM
| Compound | inhibition |
| --- | --- |
| COc1ccc(Nc2nc(N)c(C(=O)c3ccc(Cl)cc3)s2)cc1 | 63.1% |
| Nc1cc2ncnc(Nc3cccc(Br)c3)c2cc1N | 64.2% |
| O=c1[nH]cnc2sc(-c3ccccc3)cc12 | 6.15% |
| Cc1[nH]nc(-c2ccc(O)c(C)c2O)c1Oc1ccc(Br)cc1 | 34.1% |
| COc1ccc(-c2[nH]c3ncccc3c2CN2CCCC2)cc1 | 14.4% |
| COc1cc(C=C2SC(=O)NC2=O)c(Br)cc1O | 56.2% |
| CC[C@@H]1C(=O)N(C)c2cnc(Nc3ccc(C(=O)N[C@H]4CC[C@H](N5CCN(CC6CC6)CC5)CC4)cc3OC)nc2N1C(C)C | 99.8% |
| COC(=O)C=Cc1cc(O)ccc1O | 5.05% |
| COC(=O)C(C)Sc1ccc2nnc(-c3ccc(Cl)cc3)n2n1 (stereo not shown) | 7.05% |
| Cc1cc(C(C)Nc2ccccc2)c2nc(N3CCOCC3)cc(=O)n2c1 (stereo not shown) | 32.1% |
| NC(=O)COc1ccc2cc(-c3nc4ccccc4s3)c(=O)oc2c1 | 6.2% |
| O=C(Nc1cccnc1)c1n[nH]c2ccccc12 | 10.1% |
| Cn1cccc1C=C(C#N)c1nc2ccccc2s1 | 63.2% |
| COc1ccc(Nc2nccc(-c3cccc(N)c3)n2)cc1 | 30.9% |
| CCCCn1nc(C(=O)NCCC(=O)O)c2ccccc2c1=O | -0.2% |

Study 3
SMILES: CO[C@H]1CC[C@H](CNc2ccc(S(=O)(=O)NC(=O)c3ccc(N4CCN(CC5=C(c6ccc(Cl)cc6)CC(C)(C)CC5)CC4)cc3Oc3cnc4[nH]ccc4c3)cc2[N+](=O)[O-])CC1
Effect on: cell-free assay
Method: competition with immobilised ligand
Concentration: 1 µM
| target | remaining binding |
| --- | --- |
| ROCK2 (Homo sapiens, UniProt O75116) | 100% |
| CAMK2D (Homo sapiens, UniProt Q13557) | 96% |
| Macrophage colony-stimulating factor 1 receptor, autoinhibited (CSF1R, Homo sapiens, UniProt P07333) | 88% |
| PIK3C3 (Homo sapiens, UniProt Q8NEB9) | 100% |
| WEE2 (Homo sapiens, UniProt P0C1S8) | 81% |
| FLT1 (Homo sapiens, UniProt P17948) | 85% |
| PIP4K2B (Homo sapiens, UniProt P78356) | 96% |
| DSTYK (Homo sapiens, UniProt Q6XUX3) | 100% |
| Aurora kinase B (AURKB, Homo sapiens, UniProt Q96GD4) | 100% |
| STK39 (Homo sapiens, UniProt Q9UEW8) | 100% |
| EGFR (Homo sapiens, UniProt P00533, del747-752/P753S) | 100% |
| TNNI3K (Homo sapiens, UniProt Q59H18) | 85% |
| LTK (Homo sapiens, UniProt P29376) | 100% |
| EGFR (Homo sapiens, UniProt P00533, A750P/del747-749) | 58% |
| FLT3 (Homo sapiens, UniProt P36888, D835Y) | 100% |

Study 4
Target: Beta-1 adrenergic receptor (ADRB1, Homo sapiens, UniProt P08588)
Chain of UniProt P08588 (whole entry, looked up): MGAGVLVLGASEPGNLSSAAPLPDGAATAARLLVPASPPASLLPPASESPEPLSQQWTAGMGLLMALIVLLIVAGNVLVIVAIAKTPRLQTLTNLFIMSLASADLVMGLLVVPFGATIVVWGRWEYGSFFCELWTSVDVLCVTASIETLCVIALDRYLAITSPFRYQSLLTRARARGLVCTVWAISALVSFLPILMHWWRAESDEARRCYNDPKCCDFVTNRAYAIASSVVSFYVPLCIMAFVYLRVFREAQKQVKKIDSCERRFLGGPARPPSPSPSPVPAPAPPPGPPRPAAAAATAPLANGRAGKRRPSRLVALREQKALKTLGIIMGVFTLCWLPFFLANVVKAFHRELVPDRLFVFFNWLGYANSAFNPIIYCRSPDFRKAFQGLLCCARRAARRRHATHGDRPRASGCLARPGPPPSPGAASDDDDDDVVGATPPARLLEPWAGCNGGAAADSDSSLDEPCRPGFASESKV
Mode: agonist
| Compound | EC50 [µM] |
| --- | --- |
| CCOC(=O)N1CCN(Cc2cccc(OCC(O)CN3CCOCC3)c2)CC1 (stereo not shown) | ≥ 100 |
| COc1ccc2c(Cn3nnc(-c4ccccc4C)n3)cc(=O)oc2c1 | ≥ 100 |
| Cc1cccc(OCc2cc(=O)n3cccc(C)c3n2)c1C | ≥ 100 |
| Cc1ccc(OCC(O)CNc2nc(C)nc3c2c(C)nn3C)c(C)c1 (stereo not shown) | ≥ 100 |
| COc1cc2oc(=O)ccc2c(OC)c1C[C@@H](O)C(C)(C)O | ≥ 100 |
| CC(C)c1ccc(Nc2n[nH]c(C(O)C3CC3)n2)cc1 (stereo not shown) | ≥ 100 |
| Nc1nc(N)c2nc(-c3cccc(O)c3)c(-c3cccc(O)c3)nc2n1 | ≥ 100 |
| COc1ccccc1N1CCN(c2ncccc2CNC(C)Cn2ccnc2)CC1 (stereo not shown) | ≥ 100 |
| Cc1cc(-c2cc(C)c3ccccc3n2)c(C)o1 | ≥ 100 |
| O=c1cc(-c2ccccn2)oc2c(Nc3cccnc3)nccc12 | ≥ 100 |
| C[C@@H](O)[C@H](NC(=O)[C@@H]1CSSC[C@H](NC(=O)[C@H](N)Cc2ccccc2)C(=O)N[C@@H](Cc2ccc(O)cc2)C(=O)N[C@H](Cc2c[nH]c3ccccc23)C(=O)N[C@@H](CCCCN)C(=O)N1)C(N)=O | ≥ 100 |
| CC(CNc1nc(C(C)C)nc2c1cnn2C)Oc1cccnc1 (stereo not shown) | ≥ 100 |
| COc1ccccc1N1CCN(CCC(=O)NC2CCCc3ccccc32)CC1 (stereo not shown) | ≥ 100 |

Repeated from above (study 4):
| Compound | EC50 [µM] |
| --- | --- |
| COc1cc2oc(=O)ccc2c(OC)c1C[C@@H](O)C(C)(C)O | ≥ 100 |
| CC(C)c1ccc(Nc2n[nH]c(C(O)C3CC3)n2)cc1 (stereo not shown) | ≥ 100 |
| Nc1nc(N)c2nc(-c3cccc(O)c3)c(-c3cccc(O)c3)nc2n1 | ≥ 100 |
| COc1ccccc1N1CCN(c2ncccc2CNC(C)Cn2ccnc2)CC1 (stereo not shown) | ≥ 100 |
| Cc1cc(-c2cc(C)c3ccccc3n2)c(C)o1 | ≥ 100 |
| O=c1cc(-c2ccccn2)oc2c(Nc3cccnc3)nccc12 | ≥ 100 |
| C[C@@H](O)[C@H](NC(=O)[C@@H]1CSSC[C@H](NC(=O)[C@H](N)Cc2ccccc2)C(=O)N[C@@H](Cc2ccc(O)cc2)C(=O)N[C@H](Cc2c[nH]c3ccccc23)C(=O)N[C@@H](CCCCN)C(=O)N1)C(N)=O | ≥ 100 |
